Experimental data gathered from unrelated publications.
Every numbered part comes from another study and shows a few of its results, in no order.

Sample 1
Target: Sal-like protein 4, full length isoform A (SALL4, Homo sapiens, UniProt Q9UJQ4, residues 1-1053)
Chain of UniProt Q9UJQ4 (whole entry, looked up): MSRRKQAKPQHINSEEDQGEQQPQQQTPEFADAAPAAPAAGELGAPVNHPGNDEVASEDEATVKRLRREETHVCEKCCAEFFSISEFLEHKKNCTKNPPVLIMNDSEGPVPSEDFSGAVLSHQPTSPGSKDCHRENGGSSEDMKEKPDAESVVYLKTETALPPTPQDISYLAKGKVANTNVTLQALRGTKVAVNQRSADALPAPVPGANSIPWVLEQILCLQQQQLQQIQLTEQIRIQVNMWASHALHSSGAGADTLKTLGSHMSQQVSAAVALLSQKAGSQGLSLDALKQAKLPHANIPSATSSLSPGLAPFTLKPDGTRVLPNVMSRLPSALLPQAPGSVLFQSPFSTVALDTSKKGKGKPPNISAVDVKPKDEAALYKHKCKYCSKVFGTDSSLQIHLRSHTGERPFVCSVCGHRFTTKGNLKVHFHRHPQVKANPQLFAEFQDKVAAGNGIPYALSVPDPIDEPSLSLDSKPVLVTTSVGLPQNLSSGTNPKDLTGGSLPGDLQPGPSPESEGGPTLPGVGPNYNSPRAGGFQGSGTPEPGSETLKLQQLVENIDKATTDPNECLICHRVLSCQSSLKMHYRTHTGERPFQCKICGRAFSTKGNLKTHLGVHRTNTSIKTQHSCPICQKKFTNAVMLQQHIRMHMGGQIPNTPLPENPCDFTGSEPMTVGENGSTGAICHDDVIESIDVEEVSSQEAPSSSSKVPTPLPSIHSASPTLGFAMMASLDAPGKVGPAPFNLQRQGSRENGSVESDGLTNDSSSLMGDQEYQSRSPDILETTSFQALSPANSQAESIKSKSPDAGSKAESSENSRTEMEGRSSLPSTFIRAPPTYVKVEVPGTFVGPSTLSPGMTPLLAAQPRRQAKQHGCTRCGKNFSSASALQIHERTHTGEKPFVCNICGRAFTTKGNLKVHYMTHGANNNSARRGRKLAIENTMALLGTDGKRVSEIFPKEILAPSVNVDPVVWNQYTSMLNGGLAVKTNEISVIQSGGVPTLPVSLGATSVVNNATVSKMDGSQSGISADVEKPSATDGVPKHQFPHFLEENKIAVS
Method: universal PBM
Form: double-stranded DNA, one strand shown
Sample: in vitro
Tested at: 600 nM
Notes: 8-mer, flanks averaged, mean of replicates
Direction: higher = stronger binding
Measurement: E-score
Strand = ACGGGCAG; value = -0.106
Strand = AGTGTTAG; value = 0.0373
Strand = CATTAACA; value = 0.282
Strand = CCAATAGG; value = 0.0124
Strand = AGGCTGGG; value = -0.308
Strand = TAAGTGGA; value = 0.203
Strand = CTCCTTCC; value = -0.141
Strand = CTAGTGGC; value = -0.134
Strand = ACATCTAG; value = 0.0922
Strand = GCGGTTAA; value = -0.134
Strand = GTTACTAA; value = 0.204
Strand = ATGAACAC; value = 0.213
Strand = GAGGACCA; value = -0.224
Strand = GTGTAAGA; value = 0.103
Strand = CAGGCCGA; value = -0.235
Strand = CTCTGCTC; value = -0.198
Strand = TGCAAGAA; value = 0.0998
Strand = AATTTTGC; value = 0.269
Strand = AGTTAGAA; value = 0.0737
Strand = GCAACAGC; value = -0.135
Strand = TAGCGCTA; value = 0.0304
Strand = CCGTATGC; value = -0.211
Strand = GTCCATAA; value = 0.15
Strand = AAACGGCA; value = -0.0161
Strand = CACCCAAA; value = -0.0598

Sample 2
Target: Protein C-ets-1 (ETS1, Homo sapiens, UniProt P14921, residues 1-441, Y397A, full length assumed)
Method: protein-binding microarray
Form: double-stranded DNA, one strand shown
Sample: in vitro
Tested at: not given
Notes: k-mer, scored over probes, only values ≥0.25
Direction: higher = stronger binding
Measurement: E-score
Construct (chain): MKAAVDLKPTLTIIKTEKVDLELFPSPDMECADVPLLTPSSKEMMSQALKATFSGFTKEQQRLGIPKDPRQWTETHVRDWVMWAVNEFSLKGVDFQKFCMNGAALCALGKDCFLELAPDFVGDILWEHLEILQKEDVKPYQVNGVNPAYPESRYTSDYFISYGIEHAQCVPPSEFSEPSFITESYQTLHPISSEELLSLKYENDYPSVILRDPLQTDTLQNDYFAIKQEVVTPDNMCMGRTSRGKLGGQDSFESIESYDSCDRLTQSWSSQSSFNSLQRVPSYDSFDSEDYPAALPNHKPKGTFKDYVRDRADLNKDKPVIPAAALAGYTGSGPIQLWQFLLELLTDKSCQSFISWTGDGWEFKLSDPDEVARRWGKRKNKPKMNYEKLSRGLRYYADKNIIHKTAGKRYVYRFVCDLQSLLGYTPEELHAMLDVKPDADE
Strand = CAGTGTCA; value = 0.278
Strand = GACGGAAA; value = 0.253
Strand = CGCGCAAA; value = 0.355
Strand = ATGTTGCG; value = 0.297
Strand = ACATGACA; value = 0.357
Strand = GACAAAAA; value = 0.372
Strand = CAACGGAA; value = 0.287
Strand = GACAATGC; value = 0.256
Strand = AATGGCAT; value = 0.25
Strand = CTTACAAA; value = 0.26
Strand = TACTGTCA; value = 0.284
Strand = ACTGCCAT; value = 0.253
Strand = CGATATCC; value = 0.276
Strand = GATATACC; value = 0.272
Strand = ACAAGGAA; value = 0.257
Strand = AACTGTGT; value = 0.263
Strand = CAAAAATA; value = 0.256
Strand = AATTTGTC; value = 0.353
Strand = GTGTGACA; value = 0.297
Strand = CACCGACA; value = 0.321
Strand = GCGACAAC; value = 0.263
Strand = CGGAAGTA; value = 0.475
Strand = AGCATCCG; value = 0.264
Strand = CGTGACAC; value = 0.274
Strand = ACGACGGA; value = 0.277

Sample 3
Target: Ras GTPase-activating protein-binding protein 1, RRM domain (G3BP1, Homo sapiens, UniProt Q13283)
Chain of UniProt Q13283 (whole entry, looked up): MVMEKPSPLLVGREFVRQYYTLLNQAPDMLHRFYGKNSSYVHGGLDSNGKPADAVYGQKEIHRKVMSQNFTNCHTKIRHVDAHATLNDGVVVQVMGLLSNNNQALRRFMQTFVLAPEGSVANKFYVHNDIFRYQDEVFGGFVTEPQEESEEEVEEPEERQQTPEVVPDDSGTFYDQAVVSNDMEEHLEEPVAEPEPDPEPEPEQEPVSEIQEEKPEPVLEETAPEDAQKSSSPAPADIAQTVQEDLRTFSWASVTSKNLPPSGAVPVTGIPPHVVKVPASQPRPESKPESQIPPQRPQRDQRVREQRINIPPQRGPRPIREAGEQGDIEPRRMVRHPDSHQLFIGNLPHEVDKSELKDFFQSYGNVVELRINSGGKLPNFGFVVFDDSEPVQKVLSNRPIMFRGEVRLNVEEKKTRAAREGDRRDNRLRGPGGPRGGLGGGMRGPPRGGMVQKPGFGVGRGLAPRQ
Method: RNA Bind-n-Seq
Form: RNA
Sample: in vitro
Tested at: 1 µM
Notes: whole 134-nt RNA, ends assumed
With: 150 mM KCl
Reference: input library
Direction: higher = stronger binding
Measurement: log2 enrichment
Shared flanks, not repeated: GGGAGUUCUACAGUCCGACGAUC … UGGAAUUCUCGGGUGUCAAGG
Strand = UAACUUGAGAGGAGGAUCUGAUGGAUAUGGCAGUGGACGUGGAUUUGGGGAUGGCUAUAAUGGGUAUGGAGGAGGACCUGGAGGUGGCAA; value = 0.068
Strand = CCUGUGCUACACAUCGUAUGUACCGAAUCGGGGAAAAAAGGGAAAAAAGGAAAAAAGGGGAAAGUAUUAUGUUACGCCGUUCGGAUCUGC; value = -0.0693
Strand = UCCUGUGCUACACAUCGUAUGUACCGAAUCGGGCCCCCGGGGCCCCCGGGCCCCCGGGGAAAGUAUUAUGUUACGCCGUUCGGAUCUGCA; value = -0.602
Strand = UAACUUUAGAGGAGGAUCUGAUGGAUAUGGCAGUGGACGUGGAAUUGGGGAUGGCUAUAAUGGGUAUGGAGGAGGACCUGGAGGUGGCAA; value = -0.759
Strand = AGUCCUGUGCUACACAUCGUAUGUACCGAAUCGGAAAAAGGUUUUUGGAAAAAAAGGAAAGUAUUAUGUUACGCCGUUCGGAUCUGCACU; value = -0.111
Strand = CUGUGCUACACAUCGUAUGUACCGAAUCGGGGUUUUUUUGGGGAAAGGGGAAAAAAAGGGGAAAGUAUUAUGUUACGCCGUUCGGAUCUG; value = 0.328
Strand = ACCAAGCAGGUGGGCAUCUUUGGGAAGUGGGGCAAGGGGGGGAUAGGGAGGGGGGUAACACUUUGGGAACAGGUGGUCCCAGGUCGUUUC; value = -0.525
Strand = GCAGGAAGUAAAAACAAAUGGAAAUGCUUCGGAUCGUGGCAGGGGUGGGGGUUGCUAAGGAAAGGGUGGGAUGGGAGUGGGUAAAGAGUU; value = 1.71
Strand = UGGCCCUGGUGGCAUGCGGGGAGGAAGAGGUGGCCUCAUGGAUCGUGGUGGUCCCGGUGGAAUGUUCAGAGGUGGCCGUGGUUGAGACAG; value = 2.23
Strand = CUGUGCUACACAUCGUAUGUACCGAAUCAAACCCCCCCAAAUUUUUUUAAACCCCCCCAAAAAAGUAUUAUGUUACGCCGUUCGGAUCUG; value = 1.27

Sample 4
Target: Prothrombin, mature alpha-thrombin (F2, Homo sapiens, UniProt P00734)
Method: aptamer microarray, sandwich
Form: DNA with 2'F-ANA
Sample: in vitro
Tested at: 200 nM
Notes: whole 15-mer aptamer, many near background
With: Cy3 exosite-II aptamer, 400 nM
Direction: higher = stronger binding
Measurement: mean fluorescence intensity
Strand: GGTTGGTGTGGTTGG
Modification = 2'F-ANA at 1 2 6 10 15; value = 54.4 a.u.
Modification = 2'F-ANA at 2 10 14 15; value = 110 a.u.
Modification = 2'F-ANA at 3 5 7 12 13 15; value = 180 a.u.
Modification = 2'F-ANA at 1 2 5 6 10 11 13 14 15; value = 58.5 a.u.
Modification = 2'F-ANA at 2 3 4 5 8 10 12 14; value = 48.8 a.u.
Modification = 2'F-ANA at 1 2 3 4 5 6 8 9 12 13 14 15; value = 51.1 a.u.
Modification = 2'F-ANA at 1 2 4 5 8 9; value = 65.8 a.u.
Modification = 2'F-ANA at 1 4 13 14; value = 53.7 a.u.
Modification = 2'F-ANA at 1 3 6 7 11 12 14 15; value = 99 a.u.
Modification = 2'F-ANA at 2 6 7 12 13; value = 544 a.u.
Modification = 2'F-ANA at 1 4 6 7 12 13 14 15; value = 54.9 a.u.
Modification = 2'F-ANA at 1 4 6 7 8 9 11 13 14; value = 51 a.u.
Modification = 2'F-ANA at 3 7 8 9 11 14 15; value = 690 a.u.
Modification = 2'F-ANA at 4 5 6 8 9 10 11 12 13 14 15; value = 45.3 a.u.
Modification = 2'F-ANA at 1 5 8 10 12 13 14; value = 44.2 a.u.
Modification = 2'F-ANA at 1 3 4 5 6 9 11 13 14; value = 58.1 a.u.
Modification = 2'F-ANA at 1 2 3 4 7 8 9 10 11 13 15; value = 64.2 a.u.
Modification = 2'F-ANA at 1 2 5 7 9 11 12; value = 99 a.u.
Modification = 2'F-ANA at 2 3 5 6 10 12 13; value = 54.7 a.u.
Modification = 2'F-ANA at 3 7 8 10 13 14 15; value = 539 a.u.

Repeated from above (sample 2):
Strand = CGGAAGTA; value = 0.475
Strand = CAACGGAA; value = 0.287
Strand = GCGACAAC; value = 0.263
Strand = CAAAAATA; value = 0.256
Strand = ATGTTGCG; value = 0.297
Strand = GACGGAAA; value = 0.253
Strand = TACTGTCA; value = 0.284
Strand = CTTACAAA; value = 0.26
Strand = CGCGCAAA; value = 0.355
Strand = CACCGACA; value = 0.321
Strand = ACTGCCAT; value = 0.253
Strand = CGATATCC; value = 0.276
